Results pooled from the literature.
± gives the spread as reported. Values after ≈ are worked out from the molar mass of the structure shown.

`COc1ccccc1C(=O)Nc1ccccc1Sc1ccc(N)cc1` gave an IC50 of 37800 nM (HIV-1; viral replication, measured: RT activity; H9 expressing A3G, LAI, X4-tropic wild type; day 7).
`CNc1nc(N)ncc1-c1cn([C@@H]2O[C@H](CO)[C@@H](O)[C@@]2(C)F)cn1`: antiviral activity “inactive” (human cytomegalovirus; concentration not given).
`Nc1ncnc2c([C@@H]3N[C@H](CO)[C@@H](O)[C@H]3O)c[nH]c12` gave an inhibition of 70.2% (Marburg virus; viral RNA in cell lysate; HeLa, Musoke; 100 µM, 24 h).
`Nc1nc(NC2CC2)c2ncn([C@H]3C=C[C@@H](CO)C3)c2n1` gave an IC50 of 1670 ± 72.4 nM (HIV-1 T215F; MTT; MT4).
`Cc1cc(/C=C/C#N)cc(C)c1-n1cnc2cnc(Nc3ccc(/C=C/C#N)cc3)nc21` has an EC50 of 11.3 ± 2.2 nM (HIV-1; viral replication, single-round infection; RT mutant V106A).
For `CC[C@H](C)[C@H](NC(=O)[C@H](CC(C)C)NC(=O)[C@H](CCCCN)NC(=O)[C@H](CC(C)C)NC(=O)CNC(=O)[C@@H](NC(=O)[C@H](CO)NC(=O)[C@@H](NC(=O)[C@@H](NC(=O)[C@H](CCC(N)=O)NC(=O)[C@H](Cc1c[nH]c2ccccc12)NC(=O)[C@H](CCCNC(=N)N)NC(=O)[C@H](CC(N)=O)NC(=O)[C@H](CCCNC(=N)N)NC(=O)[C@H](CCCNC(=N)N)NC(=O)[C@@H](NC(=O)[C@H](Cc1ccccc1)NC(=O)[C@H](CCCNC(=N)N)NC(=O)CNC(=O)[C@H](C)NC(=O)[C@H](CCCNC(=N)N)NC(=O)[C@H](CCCNC(=N)N)NC(=O)[C@H](CCCCN)NC(=O)[C@H](Cc1ccccc1)NC(=O)[C@H](CCCNC(=N)N)NC(=O)CNC(=O)[C@H](Cc1c[nH]c2ccccc12)NC(=O)[C@H](CCCNC(=N)N)NC(=O)CNC(=O)[C@H](CCCNC(=N)N)NC(=O)[C@@H](N)[C@@H](C)O)[C@@H](C)CC)[C@@H](C)CC)[C@@H](C)CC)[C@@H](C)O)C(=O)NCC(=O)O`, the MIC was 0.3 µM (≈ 1.17 µg/mL) (Clostridium perfringens; ATCC 13124).
`Cc1cc(OCC(O)CN2CCN(c3cccc(Cl)c3)CC2)ccc1Cl` (centres unmarked) has an AC50 of 12600 nM (SARS-CoV-2; cytopathic effect, cell-based CPE; USA_WA1/2020; round 1, 5-point dilution).
For `Cc1cn([C@H]2C[C@H](N=[N+]=[N-])[C@@H](CO)O2)c(=O)[nH]c1=O`, the IC50 was 114 ± 88.3 nM (HIV-1 T215F; MTT; MT4).
`COc1ccccc1C(=O)Nc1ccccc1Oc1ccc([N+](=O)[O-])cc1` has an IC50 of 4900 nM (HIV-1; viral replication, measured: RT activity; H9 expressing A3G, LAI, X4-tropic wild type; day 7).
`CNC(=O)[C@@H](NC(=O)[C@H](CC(C)C)[C@H](O)C(=O)NO)C(C)(C)C` gave a remaining activity of 100% (Daboia russelii venom proteases (SVMP); protease activity, inhibitor; RJ population; 0.001 µM, with: azocasein substrate; baseline: venom alone).
`C#C[C@]1(CO)O[C@@H](n2cnc3c(=O)[nH]c(N)nc32)C[C@@H]1O` gave an IC50 of 2 ± 0.6 nM (HIV-1 T215F; MTT; MT4).
`CNc1nc(N)ncc1-c1cn([C@@H]2O[C@H](CO[P@@](=O)(N[C@@H](C)C(=O)OC(C)C)Oc3ccccc3)[C@@H](O)[C@@]2(C)F)cn1`: antiviral activity “inactive” (herpes simplex virus 1; concentration not given).
`CC[C@H](C)[C@H](NC(=O)[C@H](CC(C)C)NC(=O)[C@H](Cc1c[nH]c2ccccc12)NC(=O)[C@H](CCC(N)=O)NC(=O)[C@@H](NC(=O)[C@H](Cc1ccccc1)NC(=O)[C@H](C)NC(=O)[C@H](CCCCNC(=O)COCCOCCNC(=O)COCCOCCNC(=O)CC[C@H](NC(=O)CCCCCCCCCCCCCCCCCCC(=O)O)C(=O)O)NC(=O)[C@H](CCC(N)=O)NC(=O)[C@H](C)NC(=O)[C@@H](NC(=O)[C@H](CCCCN)NC(=O)[C@H](CC(=O)O)NC(=O)[C@H](CC(C)C)NC(=O)C(C)(C)NC(=O)[C@@H](NC(=O)[C@H](CO)NC(=O)[C@H](Cc1ccc(O)cc1)NC(=O)[C@H](CC(=O)O)NC(=O)[C@H](CO)NC(=O)[C@@H](NC(=O)[C@H](Cc1ccccc1)NC(=O)[C@@H](NC(=O)CNC(=O)[C@H](CCC(=O)O)NC(=O)C(C)(C)NC(=O)[C@@H](N)Cc1ccc(O)cc1)[C@@H](C)O)[C@@H](C)O)[C@@H](C)CC)[C@@H](C)CC)C(C)C)C(=O)N[C@@H](C)C(=O)NCC(=O)NCC(=O)N1CCC[C@H]1C(=O)N[C@@H](CO)C(=O)N[C@@H](CO)C(=O)NCC(=O)N[C@@H](C)C(=O)N1CCC[C@H]1C(=O)N1CCC[C@H]1C(=O)N1CCC[C@H]1C(=O)N[C@@H](CO)C(N)=O`: “subjects with adverse event” 0% (measured: treatment-emergent back pain; healthy subjects; 1.5 mg, multiple ascending dose).
With `NC(=O)CCNC(=O)c1ccccc1S` the EC50 was 5390 ± 740 nM (HIV-1; viral replication; human PBMC, subtype D 92UG001, dual-tropic clinical isolate).
`Cn1cnc(Cn2c(=O)[nH]/c(=N\c3cc4cn(C)nc4cc3Cl)n(Cc3cc(F)c(F)cc3F)c2=O)n1`: “patients with adverse event” 0% (human, severe renal impairment; oral, 375 mg, decreased GFR TEAE, moderate severity).
`Cc1cccc(N2CCN(C(=O)C3CCN(Cc4nc(-c5ccc(Cl)cc5)oc4C)CC3)CC2)c1C` gave an efficacy of 119% (SARS-CoV-2; cytopathic effect; USA_WA1/2020; round 1, 5-point).
For `N#CC(C#N)=NNc1cccc(Cl)c1`, the tetracycline MIC was 450 µM (Escherichia coli; checkerboard; tetracycline-resistant (pBR322); 21 µM, with: tetracycline).
`C[C@]1(CO)O[C@@H](n2cnc3c(N)nc(N)nc32)C[C@@H]1O` has an IC50 of 139 ± 39.2 nM (HIV-1 T215F; MTT; MT4).
The EC50 of `COCC(C)n1ccn2cc(C(=O)NCc3ccc(F)cc3F)c(=O)c(O)c2c1=O` (centres unmarked) is reported as 3 ± 0.3 nM (human immunodeficiency virus 1; single-round vector infection; integrase S230N).
For `C#C[C@]1(CO)O[C@@H](n2cnc3c(O)ncnc32)C[C@@H]1O`, the IC50 was 37.1 ± 3.2 nM (HIV-1 K65R; MTT; MT4).
With `N#CC(C#N)=NNc1cccc(Cl)c1` the MIC was 12.5 µM (≈ 2.56 µg/mL) (Staphylococcus aureus; NCTC 8325).
The EC50 of `Cc1cn([C@H]2C[C@H](N=[N+]=[N-])[C@@H](CO)O2)c(=O)[nH]c1=O` is reported as less than 0.3 nM (HIV-1; viral replication; human monocytes/macrophages, subtype B 91US005, CCR5-tropic).
`COc1ccccc1NS(=O)(=O)c1ccccc1Sc1ccc(N)cc1` has an IC50 of 9300 nM (HIV-1; viral replication, measured: RT activity; H9 expressing A3G, LAI, X4-tropic wild type; day 7).
For `Cc1cc(/C=C/C#N)cc(C)c1Nc1ccnc(Nc2ccc(C#N)cc2)n1`, the EC50 was no more than 0.8 nM (HIV-1; viral replication, single-round infection; RT mutant V106A/F227L).
`COc1ccccc1NC(=O)c1ccccc1Sc1ccc([N+](=O)[O-])cc1Cl` gave an IC50 of 5000 nM (HIV-1; viral replication, measured: RT activity; H9 expressing A3G, LAI, X4-tropic wild type; day 7).
The EC50 of `Cc1cc(/C=C/C#N)cc(C)c1Nc1nc(Nc2ccc(/C=C/C#N)cc2)ncc1N` is reported as 1.9 ± 0.4 nM (HIV-1; viral replication, single-round infection; RT mutant K101E/M184V).
`CC[C@]1(CO)O[C@@H](n2cnc3c(N)nc(N)nc32)C[C@@H]1O` gave an IC50 of greater than 1000 nM (HIV-1 M184V; MT4).
The EC50 of `CCCC(=O)OCSc1ccccc1C(=O)NCCC(N)=O` is reported as 3080 ± 1220 nM (HIV-1; viral replication; human PBMC, subtype C 93MW959, CCR5-tropic clinical isolate).
The EC50 of `Cc1cc(/C=C/C#N)cc(C)c1Nc1ncc(N)c(Nc2c(C)cc(/C=C/C#N)cc2C)n1` is reported as 134 ± 9.7 nM (HIV-1; viral replication, single-round infection; RT mutant V106A).
The IC50 of `COC(=O)c1ccc(Oc2ccccc2NC(=O)c2ccccc2OC)cc1` is reported as 10700 nM (HIV-1; viral replication, measured: RT activity; H9 expressing A3G, LAI, X4-tropic wild type; day 7).
For `O=C1Nc2ccc(Cl)cc2[C@@](C#CC2CC2)(C(F)(F)F)O1`, the EC50 was 2.1 ± 0.1 nM (HIV-1; viral replication, single-round infection; RT mutant E138K/M184V).
For `C#C[C@]1(CO)O[C@@H](n2cnc3c(N)nc(F)nc32)C[C@@H]1O`, the IC50 was no more than 1 nM (HIV-1 K65R; MTT; MT4).
With `COc1ccccc1NC(=O)c1ccccc1OCc1ccc2c(c1)OCO2` the IC50 was 12900 nM (HIV-1; viral replication, measured: RT activity; H9 expressing A3G, LAI, X4-tropic wild type; day 7).
With `Cn1c(Cn2ccc(C(F)(F)F)c(Oc3cc(Cl)cc(C#N)c3)c2=O)n[nH]c1=O` the EC50 was 1.4 ± 0.6 nM (HIV-1; viral replication, single-round infection; RT mutant E138K/M184I).
For `COc1ccccc1C(=O)Nc1ccccc1Oc1ccc(OC(C)=O)cc1`, the IC50 was 43200 nM (HIV-1; viral replication, measured: RT activity; H9 expressing A3G, LAI, X4-tropic wild type; day 7).
`CC[C@H](C)[C@H](N)C(=O)N[C@@H](Cc1c[nH]c2ccccc12)C(=O)N[C@@H](CC(C)C)C(=O)N[C@H](C(=O)N[C@@H](C)C(=O)N[C@@H](CC(C)C)C(=O)N[C@@H](CCCCN)C(=O)N[C@@H](Cc1ccccc1)C(=O)N[C@@H](CC(C)C)C(=O)NCC(=O)N[C@@H](CCCCN)C(=O)N[C@@H](Cc1c[nH]cn1)C(=O)N[C@@H](C)C(=O)N[C@@H](C)C(=O)N[C@@H](CCCCN)C(=O)N[C@@H](Cc1c[nH]cn1)C(=O)N[C@@H](CC(C)C)C(=O)N[C@@H](C)C(=O)N[C@@H](CCCCN)C(=O)N[C@@H](CCC(N)=O)C(=O)N[C@@H](CCC(N)=O)C(=O)N[C@@H](CC(C)C)C(=O)N[C@@H](CO)C(=O)N[C@@H](CCCCN)C(=O)N[C@@H](CC(C)C)C(=O)O)[C@@H](C)O` has an MIC of 25 µM (≈ 71.1 µg/mL) (Pseudomonas aeruginosa; broth microdilution; PAO1).
For `Nc1nc(F)nc2c1ncn2[C@H]1C[C@H](O)[C@](CO)(CF)O1`, the IC50 was 275 ± 195 nM (HIV-1 T215F; MTT; MT4).
The IC50 of `O=C(Cc1ccccc1F)Nc1ccccc1Sc1ccc([N+](=O)[O-])cc1` is reported as 29700 nM (HIV-1; viral replication, measured: RT activity; H9 expressing A3G, LAI, X4-tropic wild type; day 7).

A few entries again:
For `CC[C@H](C)[C@H](NC(=O)[C@H](CC(C)C)NC(=O)[C@H](CCCCN)NC(=O)[C@H](CC(C)C)NC(=O)CNC(=O)[C@@H](NC(=O)[C@H](CO)NC(=O)[C@@H](NC(=O)[C@@H](NC(=O)[C@H](CCC(N)=O)NC(=O)[C@H](Cc1c[nH]c2ccccc12)NC(=O)[C@H](CCCNC(=N)N)NC(=O)[C@H](CC(N)=O)NC(=O)[C@H](CCCNC(=N)N)NC(=O)[C@H](CCCNC(=N)N)NC(=O)[C@@H](NC(=O)[C@H](Cc1ccccc1)NC(=O)[C@H](CCCNC(=N)N)NC(=O)CNC(=O)[C@H](C)NC(=O)[C@H](CCCNC(=N)N)NC(=O)[C@H](CCCNC(=N)N)NC(=O)[C@H](CCCCN)NC(=O)[C@H](Cc1ccccc1)NC(=O)[C@H](CCCNC(=N)N)NC(=O)CNC(=O)[C@H](Cc1c[nH]c2ccccc12)NC(=O)[C@H](CCCNC(=N)N)NC(=O)CNC(=O)[C@H](CCCNC(=N)N)NC(=O)[C@@H](N)[C@@H](C)O)[C@@H](C)CC)[C@@H](C)CC)[C@@H](C)CC)[C@@H](C)O)C(=O)NCC(=O)O`, the MIC was 0.3 µM (≈ 1.17 µg/mL) (Clostridium perfringens; ATCC 13124).
`Cc1cc(OCC(O)CN2CCN(c3cccc(Cl)c3)CC2)ccc1Cl` (centres unmarked) has an AC50 of 12600 nM (SARS-CoV-2; cytopathic effect, cell-based CPE; USA_WA1/2020; round 1, 5-point dilution).
For `Cc1cn([C@H]2C[C@H](N=[N+]=[N-])[C@@H](CO)O2)c(=O)[nH]c1=O`, the IC50 was 114 ± 88.3 nM (HIV-1 T215F; MTT; MT4).
`COc1ccccc1C(=O)Nc1ccccc1Oc1ccc([N+](=O)[O-])cc1` has an IC50 of 4900 nM (HIV-1; viral replication, measured: RT activity; H9 expressing A3G, LAI, X4-tropic wild type; day 7).
`CNC(=O)[C@@H](NC(=O)[C@H](CC(C)C)[C@H](O)C(=O)NO)C(C)(C)C` gave a remaining activity of 100% (Daboia russelii venom proteases (SVMP); protease activity, inhibitor; RJ population; 0.001 µM, with: azocasein substrate; baseline: venom alone).
`C#C[C@]1(CO)O[C@@H](n2cnc3c(=O)[nH]c(N)nc32)C[C@@H]1O` gave an IC50 of 2 ± 0.6 nM (HIV-1 T215F; MTT; MT4).
